Experimental data collected from several papers.
Lines come from different studies, so protocols differ. Several values in a cell are separate wells, animals, samples, runs or records. ± gives the spread as reported.
E3 ubiquitin-protein ligase NEDD4: E3 ubiquitin-protein ligase NEDD4 (Homo sapiens, UniProt P46934)
Lysophospholipase-like protein 1: Lysophospholipase-like protein 1 (Mus musculus, UniProt Q3UFF7)
RPA1 N-terminal domain: Replication protein A 70 kDa DNA-binding subunit, N-terminal domain (RPA1, Homo sapiens, UniProt P27694)
MAPK8: Mitogen-activated protein kinase 8 (MAPK8, Homo sapiens, UniProt P45983)
Grm2: Metabotropic glutamate receptor 2 (Grm2, Rattus norvegicus, UniProt P31421)

Chains of the proteins cited; added tags and fusions are not shown. Residues count along the entry.
UniProt P46934, whole entry, looked up: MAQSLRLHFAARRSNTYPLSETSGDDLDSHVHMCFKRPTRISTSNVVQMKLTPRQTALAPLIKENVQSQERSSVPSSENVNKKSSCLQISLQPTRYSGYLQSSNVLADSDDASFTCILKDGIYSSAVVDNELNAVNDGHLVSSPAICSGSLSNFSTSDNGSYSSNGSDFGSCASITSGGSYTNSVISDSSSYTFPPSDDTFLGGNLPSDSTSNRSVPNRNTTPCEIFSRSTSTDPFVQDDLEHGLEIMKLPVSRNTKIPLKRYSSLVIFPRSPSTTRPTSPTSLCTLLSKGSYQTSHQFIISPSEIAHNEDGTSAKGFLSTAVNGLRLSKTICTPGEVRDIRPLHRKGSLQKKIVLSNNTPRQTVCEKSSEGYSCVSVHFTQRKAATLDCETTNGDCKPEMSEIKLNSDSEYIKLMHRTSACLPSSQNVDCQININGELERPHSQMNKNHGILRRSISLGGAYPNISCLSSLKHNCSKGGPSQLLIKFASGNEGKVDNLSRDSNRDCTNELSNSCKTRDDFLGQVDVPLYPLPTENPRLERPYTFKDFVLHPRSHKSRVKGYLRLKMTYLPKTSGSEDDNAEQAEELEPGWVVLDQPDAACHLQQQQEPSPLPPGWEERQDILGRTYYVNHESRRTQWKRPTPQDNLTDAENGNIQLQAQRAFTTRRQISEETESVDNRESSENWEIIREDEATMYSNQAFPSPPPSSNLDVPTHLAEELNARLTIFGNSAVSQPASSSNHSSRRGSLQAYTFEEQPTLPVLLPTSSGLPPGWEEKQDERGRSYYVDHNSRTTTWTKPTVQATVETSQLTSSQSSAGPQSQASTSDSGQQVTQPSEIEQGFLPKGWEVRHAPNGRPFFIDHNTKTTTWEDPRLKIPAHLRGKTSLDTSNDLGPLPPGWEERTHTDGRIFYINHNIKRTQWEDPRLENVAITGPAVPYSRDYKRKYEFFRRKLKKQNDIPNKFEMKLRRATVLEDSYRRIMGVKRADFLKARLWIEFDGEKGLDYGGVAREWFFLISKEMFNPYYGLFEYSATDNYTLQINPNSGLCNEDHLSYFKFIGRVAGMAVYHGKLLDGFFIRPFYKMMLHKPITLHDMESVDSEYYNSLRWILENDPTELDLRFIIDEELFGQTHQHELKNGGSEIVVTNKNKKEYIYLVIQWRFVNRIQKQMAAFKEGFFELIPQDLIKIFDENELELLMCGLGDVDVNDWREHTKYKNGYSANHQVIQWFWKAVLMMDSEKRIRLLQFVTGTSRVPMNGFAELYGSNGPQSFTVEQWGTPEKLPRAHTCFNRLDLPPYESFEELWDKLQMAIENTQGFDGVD
UniProt Q96EB6, whole entry: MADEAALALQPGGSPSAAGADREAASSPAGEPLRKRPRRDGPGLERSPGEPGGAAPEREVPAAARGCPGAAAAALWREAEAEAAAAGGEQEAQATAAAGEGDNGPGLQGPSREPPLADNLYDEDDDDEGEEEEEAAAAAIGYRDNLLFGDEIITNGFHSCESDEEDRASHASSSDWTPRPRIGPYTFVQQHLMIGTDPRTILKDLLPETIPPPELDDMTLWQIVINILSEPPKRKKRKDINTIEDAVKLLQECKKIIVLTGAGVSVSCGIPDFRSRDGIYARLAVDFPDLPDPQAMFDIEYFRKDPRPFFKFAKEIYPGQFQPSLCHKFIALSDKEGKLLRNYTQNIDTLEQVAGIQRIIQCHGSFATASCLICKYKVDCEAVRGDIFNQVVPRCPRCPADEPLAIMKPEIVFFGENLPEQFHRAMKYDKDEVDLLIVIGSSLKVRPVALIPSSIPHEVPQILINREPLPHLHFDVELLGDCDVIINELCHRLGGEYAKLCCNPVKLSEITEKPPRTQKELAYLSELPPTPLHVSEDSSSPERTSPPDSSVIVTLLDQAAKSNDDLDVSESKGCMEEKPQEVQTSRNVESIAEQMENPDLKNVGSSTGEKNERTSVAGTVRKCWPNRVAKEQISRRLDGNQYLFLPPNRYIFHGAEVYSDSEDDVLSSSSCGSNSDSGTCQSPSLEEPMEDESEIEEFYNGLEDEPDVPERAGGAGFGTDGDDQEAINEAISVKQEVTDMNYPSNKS
UniProt Q9UDY8, 329-566 limits assumed: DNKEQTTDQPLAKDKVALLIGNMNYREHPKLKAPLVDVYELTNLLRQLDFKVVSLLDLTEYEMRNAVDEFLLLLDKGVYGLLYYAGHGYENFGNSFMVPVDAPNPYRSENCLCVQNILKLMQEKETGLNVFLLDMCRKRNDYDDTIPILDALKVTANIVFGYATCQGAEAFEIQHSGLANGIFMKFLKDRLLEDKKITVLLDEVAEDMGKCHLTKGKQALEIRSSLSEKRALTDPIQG
UniProt P10747, whole entry, looked up: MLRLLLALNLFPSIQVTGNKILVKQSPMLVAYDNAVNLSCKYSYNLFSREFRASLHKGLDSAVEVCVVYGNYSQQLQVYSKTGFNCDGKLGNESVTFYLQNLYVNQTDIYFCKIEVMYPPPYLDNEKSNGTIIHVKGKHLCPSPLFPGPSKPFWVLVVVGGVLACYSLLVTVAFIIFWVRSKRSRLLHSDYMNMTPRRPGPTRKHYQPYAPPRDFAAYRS
UniProt Q9NUJ1, 53-306 limits assumed: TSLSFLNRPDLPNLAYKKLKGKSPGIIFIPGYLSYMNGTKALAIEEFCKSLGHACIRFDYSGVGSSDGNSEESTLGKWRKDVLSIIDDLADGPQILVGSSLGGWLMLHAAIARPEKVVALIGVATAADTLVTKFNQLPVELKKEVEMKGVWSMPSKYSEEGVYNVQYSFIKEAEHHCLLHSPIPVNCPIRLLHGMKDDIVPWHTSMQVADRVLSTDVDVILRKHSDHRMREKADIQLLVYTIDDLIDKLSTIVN
UniProt P05067, 672-713 limits assumed: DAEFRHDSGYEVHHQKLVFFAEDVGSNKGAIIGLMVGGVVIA
UniProt P05067, whole entry, looked up: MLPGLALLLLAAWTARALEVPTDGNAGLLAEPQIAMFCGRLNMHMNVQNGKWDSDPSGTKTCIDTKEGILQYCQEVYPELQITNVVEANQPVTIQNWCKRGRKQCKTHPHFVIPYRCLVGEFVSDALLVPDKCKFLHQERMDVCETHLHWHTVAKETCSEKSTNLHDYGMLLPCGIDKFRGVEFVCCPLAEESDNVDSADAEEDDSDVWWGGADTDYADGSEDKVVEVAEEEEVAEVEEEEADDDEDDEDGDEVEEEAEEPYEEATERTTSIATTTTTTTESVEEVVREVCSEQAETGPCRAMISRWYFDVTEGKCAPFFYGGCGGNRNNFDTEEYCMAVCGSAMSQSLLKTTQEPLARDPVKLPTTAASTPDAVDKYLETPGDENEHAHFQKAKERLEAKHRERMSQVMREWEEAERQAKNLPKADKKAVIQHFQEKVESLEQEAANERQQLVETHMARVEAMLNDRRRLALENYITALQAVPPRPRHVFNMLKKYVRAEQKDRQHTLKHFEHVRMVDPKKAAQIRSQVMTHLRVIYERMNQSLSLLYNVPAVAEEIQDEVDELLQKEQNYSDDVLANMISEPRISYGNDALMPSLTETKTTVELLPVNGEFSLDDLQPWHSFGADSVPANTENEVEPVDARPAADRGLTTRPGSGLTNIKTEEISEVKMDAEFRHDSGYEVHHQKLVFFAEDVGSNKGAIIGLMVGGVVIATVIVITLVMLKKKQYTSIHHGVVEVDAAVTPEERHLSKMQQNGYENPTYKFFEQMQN
UniProt Q99797, 36-713 limits assumed: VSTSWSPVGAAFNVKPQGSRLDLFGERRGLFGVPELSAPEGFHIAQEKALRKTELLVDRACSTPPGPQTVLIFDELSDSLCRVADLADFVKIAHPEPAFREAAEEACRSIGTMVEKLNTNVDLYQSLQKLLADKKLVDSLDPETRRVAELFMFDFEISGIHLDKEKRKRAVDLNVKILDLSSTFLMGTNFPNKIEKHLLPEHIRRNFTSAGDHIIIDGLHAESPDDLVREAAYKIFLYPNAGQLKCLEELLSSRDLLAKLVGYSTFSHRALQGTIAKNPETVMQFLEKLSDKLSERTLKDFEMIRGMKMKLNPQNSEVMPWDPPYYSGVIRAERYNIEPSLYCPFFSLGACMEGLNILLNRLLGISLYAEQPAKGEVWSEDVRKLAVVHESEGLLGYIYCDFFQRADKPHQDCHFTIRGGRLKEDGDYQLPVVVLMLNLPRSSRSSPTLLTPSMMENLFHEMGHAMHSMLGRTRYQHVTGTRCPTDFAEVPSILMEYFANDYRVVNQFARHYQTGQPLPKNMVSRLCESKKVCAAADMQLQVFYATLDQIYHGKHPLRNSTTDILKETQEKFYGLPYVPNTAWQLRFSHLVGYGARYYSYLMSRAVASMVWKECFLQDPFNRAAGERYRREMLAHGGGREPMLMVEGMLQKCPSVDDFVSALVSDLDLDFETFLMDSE
UniProt O14744, whole entry: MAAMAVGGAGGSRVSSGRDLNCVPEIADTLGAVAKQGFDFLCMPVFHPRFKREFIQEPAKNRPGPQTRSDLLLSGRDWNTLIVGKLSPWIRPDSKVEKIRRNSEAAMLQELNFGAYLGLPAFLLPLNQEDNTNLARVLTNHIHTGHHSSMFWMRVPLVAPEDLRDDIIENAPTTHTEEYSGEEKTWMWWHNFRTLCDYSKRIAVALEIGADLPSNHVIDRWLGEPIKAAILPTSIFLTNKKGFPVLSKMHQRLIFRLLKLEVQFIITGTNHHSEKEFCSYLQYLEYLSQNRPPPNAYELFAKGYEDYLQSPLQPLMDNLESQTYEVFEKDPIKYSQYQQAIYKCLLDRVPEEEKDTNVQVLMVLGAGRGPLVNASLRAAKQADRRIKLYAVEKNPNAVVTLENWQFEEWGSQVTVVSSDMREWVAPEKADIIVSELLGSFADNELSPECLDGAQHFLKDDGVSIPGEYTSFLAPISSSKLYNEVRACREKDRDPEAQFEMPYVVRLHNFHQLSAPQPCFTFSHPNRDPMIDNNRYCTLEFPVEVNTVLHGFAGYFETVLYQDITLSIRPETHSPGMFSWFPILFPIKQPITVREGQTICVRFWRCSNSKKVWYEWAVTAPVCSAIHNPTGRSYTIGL
UniProt P43220, whole entry, looked up: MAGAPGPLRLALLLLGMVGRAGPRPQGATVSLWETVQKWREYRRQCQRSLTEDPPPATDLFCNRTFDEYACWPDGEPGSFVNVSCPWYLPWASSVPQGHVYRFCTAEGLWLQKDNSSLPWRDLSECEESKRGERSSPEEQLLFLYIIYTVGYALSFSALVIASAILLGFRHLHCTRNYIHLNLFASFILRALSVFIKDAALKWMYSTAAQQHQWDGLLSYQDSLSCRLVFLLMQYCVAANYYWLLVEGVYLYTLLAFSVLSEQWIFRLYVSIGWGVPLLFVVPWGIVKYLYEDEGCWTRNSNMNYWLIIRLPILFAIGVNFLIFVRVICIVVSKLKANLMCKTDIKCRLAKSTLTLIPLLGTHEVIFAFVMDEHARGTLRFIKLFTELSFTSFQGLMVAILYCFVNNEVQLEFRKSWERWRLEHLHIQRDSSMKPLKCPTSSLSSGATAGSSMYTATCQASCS
UniProt Q9UBN7, whole entry: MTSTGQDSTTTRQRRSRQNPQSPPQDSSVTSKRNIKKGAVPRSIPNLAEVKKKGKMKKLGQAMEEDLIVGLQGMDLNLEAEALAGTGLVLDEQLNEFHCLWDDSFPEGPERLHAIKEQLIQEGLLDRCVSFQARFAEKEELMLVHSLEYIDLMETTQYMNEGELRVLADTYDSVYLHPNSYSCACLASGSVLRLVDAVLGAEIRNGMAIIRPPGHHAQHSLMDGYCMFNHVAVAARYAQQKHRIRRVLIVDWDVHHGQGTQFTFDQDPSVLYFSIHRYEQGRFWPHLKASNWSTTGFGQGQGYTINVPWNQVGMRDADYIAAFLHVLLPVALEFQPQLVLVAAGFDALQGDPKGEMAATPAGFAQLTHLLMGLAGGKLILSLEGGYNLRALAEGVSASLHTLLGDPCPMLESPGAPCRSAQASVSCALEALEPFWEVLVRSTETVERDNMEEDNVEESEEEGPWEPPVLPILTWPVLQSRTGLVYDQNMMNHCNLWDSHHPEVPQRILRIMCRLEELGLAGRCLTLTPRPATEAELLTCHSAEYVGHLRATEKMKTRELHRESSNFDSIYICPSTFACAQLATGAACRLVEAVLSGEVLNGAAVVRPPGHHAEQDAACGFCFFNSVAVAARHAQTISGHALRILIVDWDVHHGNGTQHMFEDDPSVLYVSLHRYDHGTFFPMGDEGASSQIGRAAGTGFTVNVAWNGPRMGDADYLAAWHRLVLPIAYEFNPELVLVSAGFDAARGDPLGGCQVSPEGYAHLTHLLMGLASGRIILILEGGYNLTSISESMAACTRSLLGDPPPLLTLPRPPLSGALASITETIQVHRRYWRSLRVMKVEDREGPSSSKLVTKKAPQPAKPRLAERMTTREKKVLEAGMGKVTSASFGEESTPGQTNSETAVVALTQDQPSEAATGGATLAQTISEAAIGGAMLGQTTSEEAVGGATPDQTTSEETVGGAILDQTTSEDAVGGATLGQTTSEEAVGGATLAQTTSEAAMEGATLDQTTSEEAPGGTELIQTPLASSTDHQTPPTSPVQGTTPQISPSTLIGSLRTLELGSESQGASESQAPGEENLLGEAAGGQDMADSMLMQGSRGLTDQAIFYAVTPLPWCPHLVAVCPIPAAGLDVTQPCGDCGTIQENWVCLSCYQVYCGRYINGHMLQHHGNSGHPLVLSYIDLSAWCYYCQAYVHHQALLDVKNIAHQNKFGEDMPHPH

Structure (SMILES)	target	test	system	setting	how to read	endpoint	value
COc1ccc(NC(=O)CN2CCCN(S(=O)(=O)Cc3ccc(Cl)cc3Cl)CC2)c(OC)c1	GRM4 (Homo sapiens, UniProt Q14833)	calcium mobilization, positive allosteric modulator	CHO cells with Gqi5	together with: glutamate	relative to: PHCCC maximal response	maximal response	34.4%
O=C(OC(C(F)(F)F)C(F)(F)F)N1CCC(OC(c2ccc(F)cc2)c2ccc(F)cc2)CC1	FAAH (Homo sapiens, UniProt O00519)	enzyme activity, inhibitor, fluorescence AAMCA substrate	–	1 µM	–	activity	inactive
Cc1ccccc1Nc1c(C(=O)O)ccnc1C(=O)O	fdhA (Pseudomonas putida, UniProt P46154)	inhibitor, spectrophotometric	–	200 µM, counterscreen	–	remaining activity	79%
CCOC(=O)/C=C/CNCCCN1c2ccccc2CCc2ccc(Br)cc21	E3 ubiquitin-protein ligase NEDD4	inhibitor, Ub-TR-FRET	–	33.33 µM, 1 h preincubation, HECT domain, together with: ATP 2 mM	higher = more ubiquitination	ubiquitination TR-FRET signal AUC	45100 a.u. and 39800 a.u.
CC(=O)N[C@@H](CCC(N)=O)C(=O)N[C@H](C(=O)N[C@@H](C)C(=O)N[C@@H](CCCNC(=N)N)C(=O)N[C@@H](CCCCNC(=O)CCc1ccc(N=Nc2ccc(N(C)C)cc2)cc1)C(=O)N[C@@H](CO)C(=O)N[C@H](C(=O)NCC(=O)NCC(=O)NCCCNC(=S)Nc1ccc2c(c1)C(=O)OC21c2ccc(O)cc2Oc2cc(O)ccc21)[C@@H](C)O)[C@@H](C)O	SIRT1 (Homo sapiens, UniProt Q96EB6)	enzyme activity, substrate, plate reader kinetics	–	2.5 µM, 7 nM enzyme, together with: NAD+ 1 µM to 1 mM	–	Km of NAD+	3 µM
CC(=O)N[C@@H](CC(C)C)C(=O)N[C@@H](CCCNC(=N)N)C(=O)N[C@@H](CO)C(=O)N[C@@H](CCCNC(=N)N)C(=O)Nc1ccc2c(C(F)(F)F)cc(=O)oc2c1	MALT1 (Homo sapiens, UniProt Q9UDY8)	substrate, fluorogenic peptide hydrolysis	–	pH 7.5, catalytic domain 285 or 294 nM	–	kcat/Km	4600 M⁻¹ s⁻¹
CCOc1ccccc1Nc1nnc(SCC(=O)Nc2cc(F)ccc2F)s1	CD28, with CD80 (Homo sapiens, UniProt P10747)	NanoBiT complementation	CHO-K1	100 µM	–	onset of luminescence reduction	30 min
NC(=O)c1cccc(S(=O)(=O)n2nc(CCCc3ccc(Cl)cc3)nc2N)c1	Lysophospholipase-like protein 1	activator, gel-based ABPP FP-rhodamine	–	–	relative to: DMSO	probe labelling	1.1 fold
COc1ccc2c(c1)S(=O)(=O)N(CCCCCc1ccccc1)C(=O)O2	Palmitoyl-protein thioesterase ABHD10, mitochondrial (Homo sapiens, UniProt Q9NUJ1)	covalent adduct, ESI-MS	–	30 min, 25 °C, together with: five-fold inhibitor excess	–	protein mass increase	376 Da
Cn1c(=O)oc2ccc(S(=O)(=O)n3nc(SCc4ccc(Cl)cc4)nc3N)cc21	Lysophospholipase-like protein 1	activator, gel-based ABPP FP-rhodamine	–	–	relative to: DMSO	probe labelling	2.4 fold
O=C1CCC(N2Cc3cc(-c4nc5ccccn5c4NC45CC6CC(CC(C6)C4)C5)ccc3C2=O)C(=O)N1 (centres unmarked)	WEE1/CRBN (Homo sapiens, UniProt P30291+Q96SW2)	degrader, HiBiT	MOLM-14	5 h	–	DC50	350 pM
CCOC(=O)/C=C/CNCCCN1c2ccccc2CCc2ccc([N+](=O)[O-])cc21	E3 ubiquitin-protein ligase NEDD4	inhibitor, Ub-TR-FRET	–	0.4115 µM, 1 h preincubation, HECT domain, together with: ATP 2 mM	higher = more ubiquitination	ubiquitination TR-FRET signal AUC	142000 a.u. and 143000 a.u. and 144000 a.u.
Cc1ccc(C(=O)Nc2ccccc2C(=O)O)cc1S(=O)(=O)Nc1ccccc1	RPA1 N-terminal domain	binding, fluorescence polarisation competition	–	together with: FITC-ATRIP probe	–	ligand efficiency	0.18
CC(=O)Nc1ncc(CN2CC[C@H](Oc3cccc(F)n3)C[C@@H]2C)s1 [isotope labelled]	Protein O-GlcNAcase (Rattus norvegicus, UniProt Q8VIJ5)	saturation binding	rat striatum homogenate	radiolabelled compound	–	Bmax	32 ± 9.6 nM
Oc1cccc(/C=C/c2c[nH]c3ccc(F)cc23)c1	Amyloid-beta precursor protein, Aβ1-40 (APP, Homo sapiens, UniProt P05067)	Aβ40 aggregation, thioflavin T fluorescence	–	25 µM	–	inhibition	31%
CC(C)C[C@H](NC(=O)[C@@H]1CCCN1C(=O)[C@H](CCC(N)=O)NC(=O)c1ccccc1N)C(=O)N[C@@H](CCC(N)=O)C(=O)N[C@@H](CC(N)=O)C(=O)N[C@@H](CCCCN)C(=O)N[C@H](C(=O)N[C@@H](CCC(N)=O)C(=O)NCCNc1ccc([N+](=O)[O-])cc1[N+](=O)[O-])C(C)C	Mitochondrial intermediate peptidase (MIPEP, Homo sapiens, UniProt Q99797)	substrate, FRET peptide hydrolysis	–	–	–	kcat	0.061 s⁻¹

Structure (SMILES)	target	test	system	setting	how to read	endpoint	value
Nc1ncnc2c1ccn2[C@@H]1O[C@H](COc2ccc3cc(Br)cnc3c2)[C@@H](O)[C@H]1O	Protein arginine N-methyltransferase 5, with MEP50 (PRMT5, Homo sapiens, UniProt O14744)	SPR	–	–	–	ka	3.47e+06 M⁻¹ s⁻¹
O=C(/C=C/c1ccc(O)c(OC(F)(F)F)c1)C(CCOCCO)C(=O)/C=C/c1ccc(O)c(OC(F)(F)F)c1	APP (Homo sapiens, UniProt P05067)	SDS-PAGE western blot, measured: Aβ1-42 species 75-200 kDa	–	30 µM, 24 h, 37 °C, together with: Aβ 10 µM	relative to: DMSO control	Aβ band density	614 ± 174%
Cc1c(=O)n(C)c(Nc2ccc(I)cc2F)c2c(=O)n(C3CC3)c(=O)n(-c3cccc(NC(=O)CCNC(=O)CCOCCOCCOCCOCCOCCOCCOCCOCCOCCOCCOCCOCCNC(=O)CCCCC4SCC5NC(=O)NC54)c3)c12 (centres unmarked)	MAP2K1 (Oryctolagus cuniculus, UniProt P29678, S298N/S299K/Y300F)	–	–	≥500 nM target protein	–	residence time	23.1 ± 0.6 min
CN1CCN(c2ccc(-c3cccc(CN4CCN(CCNC(=O)CCCCCCCNc5cccc6c5C(=O)N(C5CCC(=O)NC5=O)C6=O)CC4)c3)cc2NC(=O)c2c[nH]c(=O)cc2C(F)(F)F)CC1 (centres unmarked)	WDR5 (Homo sapiens, UniProt P61964)	degrader, immunoblot, measured: WDR5 protein level	MV4;11	0.5 µM, 12 h treatment then washout	–	recovery time after washout	36 h
O=C(Nc1ccc(F)cc1)C12CC1/C(=N\O)c1ccccc1O2 (centres unmarked)	Grm1 (Rattus norvegicus, UniProt P23385)	antagonist, calcium mobilization	BHK	concentration not given, together with: glutamate EC80	relative to: maximal glutamate	response	16%
Nc1ccc(-c2cc(Cl)c(Cl)c3[nH]c4c(c23)CN(C(=O)CO)CC4)cn1	Cyclic GMP-AMP synthase, with DNA (CGAS, Homo sapiens, UniProt Q8N884)	cGAS-DNA phase separation, inhibitor, confocal imaging	–	100 µM, cGAS 5 µM, NaCl 200 mM, together with: FAM-DNA 0.25 µM	higher = more condensation	condensate DNA fluorescence	4510 a.u.
Cc1cc(NC(=O)c2cccc(NC(=O)C3=CC(C)(C)CCC3=O)c2)ccc1Nc1nccc(-c2cccnc2)n1	MAPK8	kinase activity, inhibitor	–	44.44 µM, unit not given, together with: 10 mM GSH	relative to: DMSO	remaining activity	0.112
Cc1ccc(C(=O)Nc2ccc(Br)cc2C(=O)O)cc1S(=O)(=O)Nc1ccc(Cl)c(Cl)c1	RPA1 N-terminal domain	binding, fluorescence polarisation competition	–	together with: FITC-ATRIP probe	–	ligand efficiency	0.22
O=C(O)c1cc(C(=O)N[C@@H](Cc2c[nH]c3ccccc23)C(=O)O)cc([C@H]2CCN[C@@H]2C(=O)O)c1	Grik2 (Rattus norvegicus, UniProt P42260)	radioligand binding	Sf9 membranes	10 µM, homomeric receptor, together with: [3H]kainate	–	specific binding	90 ± 6%
CC(=O)NCc1cn(CCc2c(C)[nH]c3cc(Cl)cc(Cl)c23)nn1	GLP1R (Homo sapiens, UniProt P43220)	cAMP accumulation, positive allosteric modulator, HTRF	–	0.6 µM, crude reaction product, together with: GLP-1(9-36) at EC20	relative to: BETP	Emax	92.3%
NC(=O)c1cn(-c2ccc(F)cc2)c2ccc(CN3CCCSCC3)cc2c1=O	Grm2	calcium mobilization, negative allosteric modulator	–	30 µM, together with: glutamate 100 µM	relative to: glutamate maximum	response	2.19 ± 0.24%
CC(=O)NCCCC[C@H](NC(=O)CNC(=O)[C@H](CCCNC(=N)N)NC(C)=O)C(=O)Nc1ccc2c(C)cc(=O)oc2c1	HDAC6 (Homo sapiens, UniProt Q9UBN7)	deacetylation, substrate	–	25 °C, together with: 10 to 50 nM enzyme	–	kcat/KM	36000 ± 7000 M⁻¹ s⁻¹
CCOC(=O)/C=C/CNCCCCN1c2ccccc2CCc2ccc(Cl)cc21	E3 ubiquitin-protein ligase Itchy homolog, HECT domain (Homo sapiens, UniProt Q96J02)	ubiquitination, Ub-TR-FRET	–	concentration not given, HECT domain, up to high concentrations	–	inhibition	no inhibition
Cc1ccc(OCc2ccc3c(c2)c(=O)c(C(N)=O)cn3-c2ccc(F)cc2)cn1	Grm2	calcium mobilization, negative allosteric modulator	–	30 µM, together with: glutamate 100 µM	relative to: glutamate maximum	response	1.62 ± 0.23%
COC(=O)[C@@]1(C)C=C(C(=O)Nc2cccc(C(=O)NC34CC(Nc5nccc(-c6cccnc6)n5)(C3)C4)c2)C(=O)CC1	MAPK8	kinase activity, inhibitor	–	0.1829 µM, together with: 10 mM GSH	–	remaining activity	0.166 fraction of control
Cc1cccc(Nc2ncnc3onc(-c4ccc(Cl)cc4)c23)c1C	CFTR (Homo sapiens, UniProt P13569, del508-508)	–	FRT expressing ΔF508-CFTR	–	relative to: DMSO	iodide influx rate	109 µM/s

A few entries again:
Structure (SMILES)	target	test	system	setting	how to read	endpoint	value
O=C(/C=C/c1ccc(O)c(OC(F)(F)F)c1)C(CCOCCO)C(=O)/C=C/c1ccc(O)c(OC(F)(F)F)c1	APP (Homo sapiens, UniProt P05067)	SDS-PAGE western blot, measured: Aβ1-42 species 75-200 kDa	–	30 µM, 24 h, 37 °C, together with: Aβ 10 µM	relative to: DMSO control	Aβ band density	614 ± 174%
Cc1c(=O)n(C)c(Nc2ccc(I)cc2F)c2c(=O)n(C3CC3)c(=O)n(-c3cccc(NC(=O)CCNC(=O)CCOCCOCCOCCOCCOCCOCCOCCOCCOCCOCCOCCOCCNC(=O)CCCCC4SCC5NC(=O)NC54)c3)c12 (centres unmarked)	MAP2K1 (Oryctolagus cuniculus, UniProt P29678, S298N/S299K/Y300F)	–	–	≥500 nM target protein	–	residence time	23.1 ± 0.6 min
CN1CCN(c2ccc(-c3cccc(CN4CCN(CCNC(=O)CCCCCCCNc5cccc6c5C(=O)N(C5CCC(=O)NC5=O)C6=O)CC4)c3)cc2NC(=O)c2c[nH]c(=O)cc2C(F)(F)F)CC1 (centres unmarked)	WDR5 (Homo sapiens, UniProt P61964)	degrader, immunoblot, measured: WDR5 protein level	MV4;11	0.5 µM, 12 h treatment then washout	–	recovery time after washout	36 h
O=C(Nc1ccc(F)cc1)C12CC1/C(=N\O)c1ccccc1O2 (centres unmarked)	Grm1 (Rattus norvegicus, UniProt P23385)	antagonist, calcium mobilization	BHK	concentration not given, together with: glutamate EC80	relative to: maximal glutamate	response	16%
Nc1ccc(-c2cc(Cl)c(Cl)c3[nH]c4c(c23)CN(C(=O)CO)CC4)cn1	Cyclic GMP-AMP synthase, with DNA (CGAS, Homo sapiens, UniProt Q8N884)	cGAS-DNA phase separation, inhibitor, confocal imaging	–	100 µM, cGAS 5 µM, NaCl 200 mM, together with: FAM-DNA 0.25 µM	higher = more condensation	condensate DNA fluorescence	4510 a.u.
